{"data": "Results pooled from the literature", "note": "Numbered parts are unrelated; each lists some results of a single study. Changes are numbered by the printed parent chain."}
{"data": "Series 1", "target": "ABI1, truncated, D143A, DHFR fusion (Arabidopsis thaliana)", "technique": "DHFR PCA, deep sequencing", "sample": "yeast", "notes": "methotrexate growth selection, single substitutions", "with": "(+)-ABA 4.8 µM", "baseline": "wild-type fitted maximum", "direction": "higher = stronger binding", "starting sequence": "PYL1, truncated, DHFR fusion (Arabidopsis thaliana); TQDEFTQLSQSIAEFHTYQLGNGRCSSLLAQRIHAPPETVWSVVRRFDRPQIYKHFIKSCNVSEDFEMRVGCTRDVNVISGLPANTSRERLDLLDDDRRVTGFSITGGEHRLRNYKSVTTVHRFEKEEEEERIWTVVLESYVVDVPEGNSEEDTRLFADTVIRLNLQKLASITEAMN; partner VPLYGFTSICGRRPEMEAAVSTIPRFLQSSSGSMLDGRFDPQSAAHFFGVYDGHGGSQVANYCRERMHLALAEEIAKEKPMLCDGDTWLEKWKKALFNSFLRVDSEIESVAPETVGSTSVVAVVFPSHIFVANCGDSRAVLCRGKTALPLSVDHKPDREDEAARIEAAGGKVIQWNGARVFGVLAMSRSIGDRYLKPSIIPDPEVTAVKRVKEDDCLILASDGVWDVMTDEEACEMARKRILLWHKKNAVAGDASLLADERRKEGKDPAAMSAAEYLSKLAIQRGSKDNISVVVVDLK"}
{"Substitution": "Q51Y", "relative binding score [%]": 49.3}
{"Substitution": "T120P", "relative binding score [%]": 0.692}
{"Substitution": "V142E", "relative binding score [%]": 73.6}
{"Substitution": "A30D", "relative binding score [%]": 19.4}
{"Substitution": "T106L", "relative binding score [%]": 80.4}
{"Substitution": "N114G", "relative binding score [%]": 56}
{"Substitution": "S171Q", "relative binding score [%]": 85.2}
{"Substitution": "E125G", "relative binding score [%]": 76.2}
{"Substitution": "N22C", "relative binding score [%]": 60.1}
{"Substitution": "A84E", "relative binding score [%]": 14.9}
{"Substitution": "L94D", "relative binding score [%]": -9.3}
{"Substitution": "E139G", "relative binding score [%]": -1.88}
{"Substitution": "R98V", "relative binding score [%]": 25.9}
{"Substitution": "Y141W", "relative binding score [%]": -10.1}
{"Substitution": "F66G", "relative binding score [%]": 69.9}
{"Substitution": "P50G", "relative binding score [%]": -1.89}
{"Substitution": "I105K", "relative binding score [%]": 3.92}
{"Substitution": "A35T", "relative binding score [%]": 24.4}
{"Substitution": "A158R", "relative binding score [%]": -13.1}
{"data": "Series 2", "target": "RNA binding protein fox-1 homolog 2, RRM domain, GST-SBP tag (RBFOX2, Homo sapiens, UniProt O43251-10, residues 100-194)", "technique": "RNA Bind-n-Seq", "molecule type": "RNA", "sample": "in vitro", "tested at": "365 nM", "notes": "natural RNA segment, single round, ends assumed", "baseline": "no-protein control", "direction": "higher = stronger binding", "shared flanks, not repeated": "GGGAGUUCUACAGUCCGACGAUC … UGGAAUUCUCGGGUGCCAA", "Construct (chain)": "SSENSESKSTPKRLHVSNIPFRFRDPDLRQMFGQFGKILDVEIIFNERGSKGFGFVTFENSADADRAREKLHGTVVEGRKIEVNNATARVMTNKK"}
{"Strand": "GUUACUGAAAUGAACUCUGCAGGAAUGGUGUUUCAGCGGGUGCGGCUUGACUGGUUUGAGUUCCCGAGGCCAAGGGGAAGCUUUAGCUUUGCUCUGCUUUUGAACCAGUG", "RBNS enrichment (R)": 1.16}
{"Strand": "AGCCUCUGUAACUCCCUUUUGUCCAUAGGUGUUGCGUGCCUCUCAUCUGUGGGGAAGUAUUAUUUAAUAAAAUUUAUGUUACAGGAUAACUUUAUUUUAAUGGGCAUGGG", "RBNS enrichment (R)": 4.25}
{"Strand": "AGUUUCAGUGACCCACGUCAGUUACACAUUAAAGCCAGACCCCAUGAUAAAAUUCCACAAAAUGGAAAUAAAACUCAAAUUUCUUUAGCAUUGUGUAAAUAAAUCUGAAU", "RBNS enrichment (R)": 0.404}
{"Strand": "ACUGGAACGUCCUCACAGGGAUGAAGGAAUUCUUUCUUUCCCACAGGAAAGGUGCUACUGUGUGGGUCUGGAACCUGUGAAUGAAUCACUCCUGGGGUUUCGUUUCUAUG", "RBNS enrichment (R)": 0.315}
{"Strand": "AUCAGAGAAAGAUGCUGCAUUUUAUAAUCAAAGCCCAAACUCCUUUCUUAUCCUGACCUGACCAUACUAAUAAAUAUAAUUUAUAAGCAUUGCCAUUGGAGGCUCAAUUG", "RBNS enrichment (R)": 0.598}
{"Strand": "GUGUUAGGGAAAGAAAUCACAUGUUCAGAGCCUAAUUCAGUAGGAAGGGCUUUUCUCUACCCUGAAAUGAAGGUAAUCCAAAGGCAUCCAUUUUCUAGGCUUAAAAGAUA", "RBNS enrichment (R)": 0.419}
{"Strand": "UUUCAGAUCCACUUAAAAUAUUUAGAAAAACGAGUUUUAUUCCUUAUGGGUCUUAUAGGGGAUAAAAUGCUCUUCUUCCAUGCGACACUUCCUUUCCCAUGAACACUUGC", "RBNS enrichment (R)": 0.418}
{"Strand": "AAACAUCCGACAGUUUGAAUUUAUAGUGUUGAUGGAAGAAAUCAUUUUUAAUGUGUACUGUAAAACUUGAAAUACUCAGGAGCUGAGUGAAUAUGUUUGUUGCUACUUAC", "RBNS enrichment (R)": 0.831}
{"data": "Series 3", "target": "CCNB1, cyclin fold, Cln2 fusion (human)", "technique": "yeast growth competition, sequencing", "sample": "yeast", "notes": "strong parent motif", "baseline": "not given", "direction": "higher = stronger binding", "starting sequence": "BRCA2 docking peptide (human); PSIKRNLLNEFDR; partner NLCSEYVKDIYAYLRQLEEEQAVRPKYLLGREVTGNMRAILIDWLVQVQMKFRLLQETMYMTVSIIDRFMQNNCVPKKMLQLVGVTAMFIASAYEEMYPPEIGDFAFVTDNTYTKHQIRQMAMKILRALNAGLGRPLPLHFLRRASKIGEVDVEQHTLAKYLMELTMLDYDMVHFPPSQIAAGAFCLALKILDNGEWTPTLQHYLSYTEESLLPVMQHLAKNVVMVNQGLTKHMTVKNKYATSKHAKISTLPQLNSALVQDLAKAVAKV"}
{"Substitution": "S2R", "normalised enrichment score": 0.978}
{"Substitution": "N9F", "normalised enrichment score": 1.98}
{"Substitution": "S2Y", "normalised enrichment score": 1.37}
{"Substitution": "D12T", "normalised enrichment score": 0.783}
{"Substitution": "K4A", "normalised enrichment score": 3.08}
{"Substitution": "P1C", "normalised enrichment score": 4}
{"Substitution": "I3S", "normalised enrichment score": 0.711}
{"Substitution": "E10S", "normalised enrichment score": 0.0464}
{"Substitution": "P1I", "normalised enrichment score": 2.14}
{"Substitution": "R5M", "normalised enrichment score": 0.695}
{"Substitution": "L7C", "normalised enrichment score": 0.556}
{"Substitution": "N6A", "normalised enrichment score": 1.48}
{"Substitution": "L7Q", "normalised enrichment score": 1.3}
{"Substitution": "S2A", "normalised enrichment score": 1.25}
{"Substitution": "I3E", "normalised enrichment score": 0.456}
{"Substitution": "D12E", "normalised enrichment score": 2.83}
{"Substitution": "N6H", "normalised enrichment score": 0.527}
{"Substitution": "E10T", "normalised enrichment score": -1.2}
{"Substitution": "L7W", "normalised enrichment score": -0.204}
{"Substitution": "R5Y", "normalised enrichment score": 0.253}
{"Substitution": "L7H", "normalised enrichment score": 0.037}
{"Substitution": "L7Y", "normalised enrichment score": -0.144}
{"Substitution": "N6R", "normalised enrichment score": 0.733}
{"Substitution": "N9W", "normalised enrichment score": 2.6}
{"Substitution": "E10V", "normalised enrichment score": -0.455}
{"data": "Series 4", "target": "Interferon regulatory factor 7, full length, phosphomimetic (IRF7, Homo sapiens, UniProt Q92985, residues 1-503, S101K/S471D/S472D/S475D/S476D/S477D/S483D/S484D/S487D)", "technique": "protein-binding microarray", "molecule type": "double-stranded DNA, one strand shown", "sample": "in vitro", "tested at": "250 nM", "notes": "60-bp whole probe", "with": "salmon DNA 0.4 mg/ml", "baseline": "random background probes", "direction": "higher = stronger binding", "shared flanks, not repeated": "GCCTAGCAC … GTCTTGATTCGCTTGACGCTGCTG", "UniProt Q92985, sequence (whole entry, unmodified, looked up)": "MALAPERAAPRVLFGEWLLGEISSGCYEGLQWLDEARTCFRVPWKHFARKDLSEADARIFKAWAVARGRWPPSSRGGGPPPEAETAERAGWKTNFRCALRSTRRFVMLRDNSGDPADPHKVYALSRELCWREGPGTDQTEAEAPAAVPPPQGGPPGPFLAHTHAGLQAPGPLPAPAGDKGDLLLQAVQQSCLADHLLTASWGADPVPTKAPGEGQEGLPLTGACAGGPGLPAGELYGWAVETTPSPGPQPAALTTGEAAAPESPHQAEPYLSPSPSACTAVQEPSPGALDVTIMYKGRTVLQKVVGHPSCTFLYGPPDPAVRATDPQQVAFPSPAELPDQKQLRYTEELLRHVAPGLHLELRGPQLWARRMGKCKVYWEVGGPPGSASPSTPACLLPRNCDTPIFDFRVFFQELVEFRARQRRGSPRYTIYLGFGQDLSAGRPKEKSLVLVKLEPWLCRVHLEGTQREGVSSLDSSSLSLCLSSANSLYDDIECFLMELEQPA"}
{"Strand": "TGAGAACTGGGGTTTCGATTAGTGCTA", "log fluorescence": "5.36 z-score"}
{"Strand": "GACGATTTCAGTATGGAGACGTGCTAG", "log fluorescence": "0.259 z-score"}
{"Strand": "TTAGGTATCAGGTTTCGGTTAGTGCTA", "log fluorescence": "6.87 z-score"}
{"Strand": "GACGGTGTCGGACTGGGGACGTGCTAG", "log fluorescence": "-0.566 z-score"}
{"Strand": "GACGGACTGGACTTTCGGGGCGTGCTA", "log fluorescence": "-0.716 z-score"}
{"Strand": "GACGGTATCCTTATCCTGACGTGCTAG", "log fluorescence": "0.248 z-score"}
{"Strand": "GACGGTTTCGATTATCGGGACGTGCTA", "log fluorescence": "10.3 z-score"}
{"Strand": "GACGGTATCGGGTATCTGGACGTGCTA", "log fluorescence": "0.109 z-score"}
{"Strand": "GACGGTCTCGCTCTCGGGACGTGCTAG", "log fluorescence": "-0.0163 z-score"}
{"Strand": "CTCTTCTTTTTTTTCTTTAAGTGCTAG", "log fluorescence": "1.89 z-score"}
{"Strand": "TTGCCTCACCTCACCTGTCCGTGCTAG", "log fluorescence": "1.07 z-score"}
{"Strand": "TTAGCACTGGGGTTTCGATTAGTGCTA", "log fluorescence": "4.57 z-score"}
{"Strand": "AGGCCCTTTGCTTTCCTGATGTGCTAG", "log fluorescence": "0.415 z-score"}
{"Strand": "TTAGGTACCGGTCTCGGTTAGTGCTAG", "log fluorescence": "1.87 z-score"}
{"Strand": "TTTGCTTTCTTTATGTACTCGTGCTAG", "log fluorescence": "0.659 z-score"}
{"Strand": "TCCATTTTCTGAATGCCTTGGTGCTAG", "log fluorescence": "1.5 z-score"}
{"Strand": "GACGATATCAGACTGGAGAGGTGCTAG", "log fluorescence": "-0.283 z-score"}
{"Strand": "TTAGATATCGGGTTTCGATTCGTGCTA", "log fluorescence": "10.8 z-score"}
{"Strand": "TTAGGTTCCGACTATCGGTTAGTGCTA", "log fluorescence": "1.13 z-score"}
{"note": "Excerpt of the above (series 3):"}
{"Substitution": "N6H", "normalised enrichment score": 0.527}
{"Substitution": "D12E", "normalised enrichment score": 2.83}
{"Substitution": "L7C", "normalised enrichment score": 0.556}
{"Substitution": "R5M", "normalised enrichment score": 0.695}
{"Substitution": "P1C", "normalised enrichment score": 4}
